Results pooled from the literature.
Lines come from different studies, so protocols differ. ± gives the spread as reported.
UCHL1: Ubiquitin carboxyl-terminal hydrolase isozyme L1 (UCHL1, Homo sapiens, UniProt P09936)
UniProt P09936, sequence (whole entry, looked up): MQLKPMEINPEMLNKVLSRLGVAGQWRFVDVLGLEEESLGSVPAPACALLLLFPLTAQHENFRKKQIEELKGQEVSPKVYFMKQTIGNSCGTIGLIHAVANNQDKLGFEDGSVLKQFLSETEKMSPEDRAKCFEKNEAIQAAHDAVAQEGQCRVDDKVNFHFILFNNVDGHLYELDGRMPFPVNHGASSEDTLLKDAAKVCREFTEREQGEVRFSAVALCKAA

Cc1c2oc3c(C)ccc(C(=O)N[C@@H]4C(=O)N[C@H](C(C)C)C(=O)N5CCC[C@H]5C(=O)N(C)CC(=O)N(C)[C@@H](C(C)C)C(=O)O[C@@H]4C)c3nc-2c(C(=O)N[C@@H]2C(=O)N[C@H](C(C)C)C(=O)N3CCC[C@H]3C(=O)N(C)CC(=O)N(C)[C@@H](C(C)C)C(=O)O[C@@H]2C)c(N)c1=O  maximum plasma concentration (children with cancer, plasma; dose not given, 5 min): 186 µg/L
C=CC(=O)NC1CCN(c2ncc3ncnc(Nc4ccc(Oc5ccc6c(c5)ncn6C)c(C)c4)c3n2)CC1  maximum bioaccessibility (tiny-TIM gastrointestinal model; 240 mg, fed state, high-fat meal): 45.9 ± 0.9 % recovery
Cc1cc(C#N)cc(C)c1Oc1nc(Nc2ccc(C#N)cc2)nc(N)c1Br  maximum supersaturated concentration (solvent-shift UV; FaSSIF with 0.05% HPMCAS-M): 95 µg/mL
CC(NC(=O)C(C#N)=Cc1cccc(Cl)c1Cl)c1ccccc1 (stereo not shown)  labelling (UCHL1; covalent, intact protein LC-MS; 12.5 µM): 43.2%
CN1CCN=C1c1ccc(NC(=O)c2ccc(C(=O)Nc3ccc(C4=NCCN4C)cc3)cc2)cc1  maximum haemolysis (sheep erythrocytes; 1 h, pH 7.5): 2.2%
Cc1cccc(C)c1OCC(=O)N[C@@H](Cc1ccccc1)[C@@H](O)C[C@H](Cc1ccccc1)NC(=O)[C@H](C(C)C)N1CCCNC1=O  maximum DcNP-dissociated fraction (Macaca nemestrina, plasma; intravenous, dose not given, time-averaged): 2.1%
CCCCNC(=O)NS(=O)(=O)c1cccs1  maximum haemolysis (sheep erythrocytes; 1 h, pH 7.5): 7.4%
CC(C)C(=O)O[C@H]1[C@H](C)OC(=O)[C@@H]1Cc1ccccc1  maximum share of applied radioactivity (sterile natural water, irradiated; photolysis product): 61.6 % AR
CC#CC(=O)N(CCOC)Cc1cccs1  labelling (UCHL1; covalent, intact protein LC-MS; 12.5 µM): 9.47%
O=C(O)CCN1C(=O)CSC1=S  maximum flux (excised Bama miniature pig skin; 10 mM, 24 h, 32 °C, Franz cell, donor 30% ethanol saline): 0.303 ± 0.005 µmol/cm²/h
COc1ccc(C(=O)O)cc1NC(=O)/C=C/c1ccc(-c2ccccc2C)cc1  maximum haemolysis (sheep erythrocytes; 1 h, pH 7.5): 2.73%
CC[C@H](C)[C@@H]1NC(=O)[C@H](CCCNC(=N)N)NC(=O)[C@H](CC(=O)O)NC(=O)[C@H](CC(C)C)NC(=O)[C@H](CCCCN)NC(=O)[C@H](CC(C)C)NC(=O)CNC(=O)[C@H](Cc2ccccc2)NC(=O)[C@@H](NC(=O)CNC(=O)[C@H](CCCCN)NC(=O)[C@H](CO)NC(=O)[C@H](CC(C)C)NC(=O)CNC(=O)[C@H](CCCCN)NC(=O)[C@H](CCCCN)NC(=O)[C@H](CC(N)=O)NC(=O)[C@H](C)NC(=O)CNC(=O)[C@H](CCCCN)NC(=O)[C@H](Cc2ccc(O)cc2)NC(=O)[C@H](CCCCN)NC(=O)[C@H](CCCNC(=N)N)NC(=O)[C@H](C)NC(=O)[C@H](CC(N)=O)NC(=O)[C@@H]2CCCN2C(=O)[C@H](Cc2c[nH]cn2)NC(=O)[C@H](CCC(=O)O)NC(=O)[C@H](CCC(N)=O)NC(=O)CNC(=O)[C@@H]2CCCN2)CSSC[C@@H](C(=O)O)NC(=O)CNC(=O)[C@H](CC(C)C)NC(=O)CNC(=O)[C@H](CO)NC(=O)[C@H](CCSC)NC(=O)[C@H](CO)NC(=O)CNC1=O  maximum SBP decrease (human; concentration not given): -7 mmHg
CC[C@@H]([C@H](C)O)n1ncn(-c2ccc(N3CCN(c4ccc(OC[C@@H]5CO[C@@](Cn6cncn6)(c6ccc(F)cc6F)C5)cc4)CC3)cc2)c1=O  inhibition (Trypanosoma cruzi; reporter translation, Renilla luciferase mRNA translation; cell-free extract; 40 µM; baseline: DMSO): -4.7%
